Assay results from different studies.
Each line is one published result; not all experiments were run side by side. “And” joins repeats or separate records; there may be more than shown. ± marks the error that the study gave.

`CCOc1ccccc1-n1c(CN2C[C@H]3CC[C@@H](C2)N3)nc2ccccc2c1=O` has an IC50 of 5 µM (PANC-1; cell growth or viability, ATP luminescence; 72 h).
For `CC1CCC2C(C)C(OC(=O)CCC(=O)OC3C(C)OC(n4cc(F)c(=O)[nH]c4=O)C3OC(=O)CCC(=O)OC3OC4OC5(C)CCC6C(C)CCC(C3C)C46OO5)OC3OC4(C)CCC1C32OO4` (stereo not shown), the IC50 was > 50 µM (PC-3 (p53 null); cell growth, CCK-8; 48 h).
With `Cc1cc(Nc2nc(C[C@@]3(C(=O)O)CCN(Cc4cccc(Cl)c4F)[C@H](C)C3)cc(C)c2F)[nH]n1` the IC50 was 0.115 µM (SNU-81; cell proliferation, CellTiter-Glo; 5 days).
For `Cc1cc(Oc2nc(N3CC[C@@H](c4ccncc4)C3)ncc2F)[nH]n1`, the IC50 was 61.7 µM (A-375; cell proliferation; skin cancer).
For `CC[C@H](C)[C@H](NC(=O)[C@H](CCCCN)NC(=O)[C@H](CCCCN)NC(=O)[C@H](CC(C)C)NC(=O)[C@H](CCCCN)NC(=O)[C@H](CCCCN)NC(=O)[C@H](Cc1ccccc1)NC(=O)[C@H](Cc1ccccc1)NC(=O)[C@H](CCCNC(=N)N)NC(=O)[C@H](CCCNC(=N)N)NC(=O)[C@@H](NC(=O)[C@H](CCCCN)NC(=O)[C@H](CCCNC(=N)N)NC(=O)[C@@H](NC(=O)[C@H](Cc1ccc(O)cc1)NC(=O)[C@H](CO)NC(=O)[C@H](CCCNC(=N)N)NC(=O)[C@@H](N)CC(C)C)[C@@H](C)CC)[C@@H](C)CC)C(=O)N[C@@H](CC(C)C)C(=O)N[C@@H](CCCCN)C(=O)N[C@@H](CCCCN)C(N)=O`, the IC50 was > 20 µM (SAOS-2; cell growth or viability, resazurin).
For `N#C/C(=C/c1ccc(O)c(O)c1)C(N)=S`, the IC50 was > 20 µM (HEK293-A GFP-LC3B; LC3B puncta formation; 22 h, together with: chloroquine, torin1).
With `CC1CCC2C(C)C(OC(=O)CCC(=O)N3CCN(CC(=O)Nc4ccc([N+](=O)[O-])c(C(F)(F)F)c4)CC3)OC3OC4(C)CCC1C32OO4` (stereo not shown) the IC50 was 1.13 µM (Hep3B; cell growth or viability, CCK-8).
With `CC[C@H](C)[C@H](NC(=O)[C@H](Cc1c[nH]cn1)NC(=O)[C@H](CCCNC(=N)N)NC(=O)[C@H](CCCNC(=N)N)NC(=O)[C@H](CCCNC(=N)N)NC(=O)CNC(=O)[C@H](CCCNC(=N)N)NC(=O)[C@H](CCCNC(=N)N)NC(=O)[C@H](CCCNC(=N)N)NC(=O)[C@H](CCC(N)=O)NC(=O)[C@H](CCCNC(=N)N)NC(=O)[C@H](CCCNC(=N)N)NC(=O)[C@H](CCCCN)NC(=O)[C@H](CCCCN)NC(=O)[C@H](CCCNC(=N)N)NC(C)=O)C(=O)N[C@H](C(=O)N[C@@H](CCCNC(=N)N)C(=O)N[C@@H](CCCCN)C(=O)N[C@@H](CCCNC(=N)N)C(=O)N[C@H](C(=O)N[C@@H](CC(C)C)C(=O)N[C@@H](CCCNC(=N)N)C(=O)N[C@@H](CCCNC(=N)N)C(=O)N[C@@H](CC(C)C)C(=O)N[C@@H](CC(C)C)C(=O)N[C@@H](CCC(N)=O)C(=O)N[C@@H](CCC(=O)O)C(=O)N[C@@H](CCCNC(=N)N)C(N)=O)[C@@H](C)O)C(C)C` the IC50 was 8.99 µM (H3255 (EGFR L858R); cell viability; 18 h, serum-free).
`[CH3][Ti+2][O]C(=O)c1ccc([S][Au][PH](c2ccccc2)(c2ccccc2)[c-]2cccc2)cc1.[Fe+2].c1cc[cH-]c1.c1cc[cH-]c1.c1cc[cH-]c1` gave an IC50 of 8.22 µM (CAKI-1; cell growth or viability, XTT; 24 h).
For `[Cl][Au-]1([Cl])[c]2ccccc2-c2cccc[n+]21`, the IC50 was 7 µM (A-375; cell growth or viability, resazurin; 72 h).
The IC50 of `CC(=O)N[C@H](C(=O)N[C@@H](CCCNC(=N)N)C(=O)N[C@@H](CCCCN)C(=O)N[C@@H](CCCNC(=N)N)C(=O)N[C@@]1(C)CCCC=CCCC[C@@](C)(C(=O)N[C@@H](CC(C)C)C(=O)N[C@@H](CCC(N)=O)C(=O)N[C@@H](CCC(=O)O)C(=O)N[C@@H](CCCNC(=N)N)C(=O)N[C@@H](CCC(=O)O)C(=O)N[C@@H](CC(C)C)C(=O)N[C@H](C(=O)N[C@@H](CCC(=O)O)C(N)=O)C(C)C)NC(=O)[C@H](CCCNC(=N)N)NC(=O)[C@H](CCCNC(=N)N)NC(=O)[C@H](CC(C)C)NC1=O)C(C)C` is reported as 77.2 ± 12.7 µM (H3255 (EGFR L858R); cell viability, ATP luminescence; 18 h).
`C[C@@H]1COCCN1c1nc(NCc2cccnc2C(F)(F)F)c2cccnc2n1` has an IC50 of 9.5 µM (cardiomyocytes; mitochondrial membrane potential; in vitro toxicology).
For `CSCC[C@H](N)C(=O)N[C@@H](C)C(=O)N[C@H](C(=O)N1CCC[C@H]1C(=O)N1CCC[C@H]1C(=O)N[C@H](C(=O)N[C@@H](Cc1ccc(O)cc1)C(=O)N[C@@H](C)C(=O)N[C@@H](CC(=O)O)C(=O)N[C@@H](CC(C)C)C(=O)NCC(=O)N[C@@H](CCCCN)C(=O)N[C@@H](CO)C(=O)N[C@@H](C)C(=O)N[C@@H](CCCNC(=N)N)C(=O)N[C@@H](CC(=O)O)C(=O)N[C@H](C(=O)N[C@@H](Cc1ccccc1)C(=O)N[C@H](C(=O)N[C@@H](CCCCN)C(=O)NCC(=O)N[C@@H](Cc1ccc(O)cc1)C(=O)NCC(=O)N[C@@H](Cc1ccccc1)C(=O)NCC(=O)N[C@@H](CC(C)C)C(=O)N[C@@H](CCCNC(=N)N)C(=O)N[C@@H](CCCCN)C(=O)N[C@@H](CCCCN)C(=O)N[C@@H](CCCNC(=N)N)C(=O)N[C@@H](CCCNC(=N)N)C(=O)N[C@@H](CCC(N)=O)C(=O)N[C@@H](CCCNC(=N)N)C(=O)N[C@@H](CCCNC(=N)N)C(=O)N[C@@H](CCCNC(=N)N)C(=O)NCC(=O)NCC(=O)O)[C@@H](C)O)C(C)C)[C@@H](C)O)C(C)C`, the IC50 was > 30 µM (CLL patient PBMCs; cell death, PI staining flow cytometry; 90 min).
For `CCCCCCCC(=O)NCCCC[C@H](NC(=O)CCCCCCC)C(=O)N[C@@H](CCCCNC(=O)CCCCCCC)C(=O)NCC(=O)NCC(=O)NCC(=O)N[C@@H](CS)C(=O)N[C@@H](CCCNC(=N)N)C(=O)N[C@@H](CCCCN)C(=O)N1CCC[C@H]1C(N)=O`, the IC50 was 519 µM (human red blood cells; haemolysis; pH 7.4, 37 °C; relative to: Triton X-100).
`CC(C)C12OC1C1OC13C1(C)CCC4=C(COC4=O)C1CC1OC13C2OC(=O)CCCOC1OC(CO)C(O)C(O)C1O` (stereo not shown) gave an IC50 of 1.24 µM (Detroit 562; cell growth or viability, XTT; 47 h).
With `CCOc1ccccc1-n1c(CN2CCNCC2)nc2ccc(I)cc2c1=O` the IC50 was > 10 µM (PANC-1; cell growth or viability, ATP luminescence; 72 h).
The IC50 of `CCCCCCCC(=O)NCCCC[C@H](NC(=O)CCCCCCC)C(=O)N[C@@H](CCCCNC(=O)CCCCCCC)C(=O)NCC(=O)NCC(=O)NCC(=O)N[C@@H](CS)C(=O)N[C@@H](CCCNC(=N)N)C(=O)N[C@@H](CCCCN)C(=O)N1CCC[C@H]1C(=O)N[C@@H](CS)C(=O)N[C@@H](CCCNC(=N)N)C(=O)N[C@@H](CCCCN)C(=O)N1CCC[C@H]1C(N)=O` is reported as 90.2 µM (IPEC-J2; cell growth or viability, MTT; 24 h).
The IC50 of `COC(=O)[C@H](C(C)C)N(C)C(=O)[C@H](C(C)C)N(C)C(=O)[C@@H]1CCCN1C(=O)[C@H](C)N(C)C(=O)OC(C)(C)C` is reported as 2.92 µM and 2.98 µM and 3.01 µM (DU-145; cell growth or viability, SRB).
The IC50 of `CCOc1ccc(-n2c(CN3CCNCC3)nc3ccccc3c2=O)cc1` is reported as > 10 µM (PANC-1; cell growth or viability, ATP luminescence; 72 h).
With `CC(C)C12OC1C1OC13C1(C)CCC4=C(COC4=O)C1CC1OC13C2OC(=O)CCC(=O)OC1OC(CO)C(O)C(O)C1O` (stereo not shown) the IC50 was 15.5 µM (SNU-387; cell growth or viability, XTT; 47 h).
`CCOc1ccccc1-n1c(CN2CCNCC2)nc2c(C)cccc2c1=O` has an IC50 of 1.6 µM (PANC-1; cell growth or viability, ATP luminescence; 72 h).
`CC(=O)N[C@H](C(=O)N[C@@H](CCCNC(=N)N)C(=O)N[C@@H](CCCCN)C(=O)N[C@@H](CCCNC(=N)N)C(=O)N[C@H](C(=O)N[C@@H](CC(C)C)C(=O)N[C@@H](CCCNC(=N)N)C(=O)N[C@@]1(C)CCCC=CCCC[C@@](C)(C(=O)N[C@@H](CCCNC(=N)N)C(=O)N[C@@H](CCC(=O)O)C(=O)N[C@@H](CC(C)C)C(=O)N[C@H](C(=O)N[C@@H](CCC(=O)O)C(N)=O)C(C)C)NC(=O)[C@H](CCC(N)=O)NC(=O)[C@H](CC(C)C)NC(=O)[C@H](CC(C)C)NC1=O)[C@@H](C)O)C(C)C` gave an IC50 of > 10 µM (SK-N-MC; cell viability; 18 h, serum-free).

A few entries again:
With `CC1CCC2C(C)C(OC(=O)CCC(=O)N3CCN(CC(=O)Nc4ccc([N+](=O)[O-])c(C(F)(F)F)c4)CC3)OC3OC4(C)CCC1C32OO4` (stereo not shown) the IC50 was 1.13 µM (Hep3B; cell growth or viability, CCK-8).
